Published values collected from several papers.
Lines come from different studies, so protocols differ. “And” joins repeats or separate records; there may be more than shown. ± gives the spread as reported.

`COc1ccnc(C(=O)N[C@H]2COC(=O)[C@H](Cc3ccccc3)[C@@H](OC(=O)C(C)C)[C@H](C)OC2=O)c1OCOC(=O)C(C)C`: “storage stability of residues” 9 months (wheat grain; -18 °C).
`CN(C)c1ccc(O)c2c1C[C@H]1C[C@H]3[C@H](N(C)C)C(O)=C(C(N)=O)C(=O)[C@@]3(O)C(O)=C1C2=O` has an IC50 of 3.98 µM (Plasmodium falciparum; 7G8).
Under “treatment-related ALT elevation incidence”, `CN[C@@H](C)C(=O)N[C@H]1CN(S(=O)(=O)c2cccc(S(=O)(=O)N3CC[C@H]4CC[C@@H](C(=O)NC(c5ccccc5)c5ccccc5)N4C(=O)[C@@H](NC(=O)[C@H](C)NC)C3)c2)CC[C@H]2CC[C@@H](C(=O)NC(c3ccccc3)c3ccccc3)N2C1=O` is recorded as 0% (patients with advanced solid tumours; 0.3 mg, phase I monotherapy).
For `C[C@@H](NC(=O)N1C(=O)[C@H](Cc2ccnc(N)c2)[C@H]1C(=O)O)C1CCCCC1`, “incidence of abnormal liver function” read 0% (healthy adult Chinese volunteers; continuous intravenous infusion, 1.5 mg/kg/h, 5-day infusion, CTCAE 5.0 grading).
`Cc1cc(C)c(CNC(=O)c2cc(Cl)c3c(c2C)O[C@@](C)([C@H]2CC[C@H](N(C)C)CC2)O3)c(=O)[nH]1` has a Constipation incidence of 0% (human, relapsed/refractory NHL; concentration not given, treatment-related TEAEs, grade 5).
For `c1ccc2c(c1)-c1cccc3c1c-2cc1ccccc13`, the log K(PDMS-water) was 5.18 ± 0.01 (fresh water; 12 (unit not given), 20 °C, S100 sampler, 100 µm).
For `C[C@@H]1NC(=O)[C@H](CCCCNC(=O)CO/N=C/C(=O)NCCCC[C@@H]2NC(=O)[C@@H](Cc3ccccc3)NC(=O)[C@H](CC(=O)O)NC(=O)CNC(=O)[C@H](CCCNC(=N)N)NC2=O)NC(=O)CNC(=O)[C@@H]2CCCN2C(=O)[C@H](CCCCNC(=O)CO/N=C/C(=O)NCCCC[C@@H]2NC(=O)[C@@H](Cc3ccccc3)NC(=O)[C@H](CC(=O)O)NC(=O)CNC(=O)[C@H](CCCNC(=N)N)NC2=O)NC(=O)[C@H](CCCCNC(=O)[C@H](CCCCN)NC(=O)[C@H](Cc2ccccc2)NC(=O)CNC(=O)CN2CCCNCCNCCCNCC2)NC(=O)[C@H](CCCCNC(=O)CO/N=C/C(=O)NCCCC[C@@H]2NC(=O)[C@@H](Cc3ccccc3)NC(=O)[C@H](CC(=O)O)NC(=O)CNC(=O)[C@H](CCCNC(=N)N)NC2=O)NC(=O)CNC(=O)[C@@H]2CCCN2C(=O)[C@H](CCCCNC(=O)CO/N=C/C(=O)NCCCC[C@@H]2NC(=O)[C@@H](Cc3ccccc3)NC(=O)[C@H](CC(=O)O)NC(=O)CNC(=O)[C@H](CCCNC(=N)N)NC2=O)NC1=O` [copper-64 labelled], the tissue uptake was 14.2 ± 1.32 %ID/g (normal mice, kidney; intravenous, 0.74 MBq, 24 h post-injection).
`C[C@]1(CO)Cc2ncn(-c3ccc(C#N)c(Cl)c3)c2C(=O)O1` — result for “tmax at steady state”: 1 h (human, plasma; 20 mg once daily, fasted).
The IC50 of `CP(=O)(O)CCCN` is reported as 3.98 µM (Plasmodium falciparum; 3D7).
`CC(C)CC(=O)OC[C@H]1O[C@@](C#N)(c2ccc3c(N)ncnn23)[C@H](O)[C@@H]1O` gave a fraction unbound of 0.184 (human plasma; 90 µM).
`CSCC[C@@H]1NC(=O)[C@H](Cc2c[nH]c3ccccc23)NC(=O)[C@@H](NC(=O)CCNC(=O)[C@H](CCC(N)=O)NC(=O)[C@@H]2CCCN2C(=O)[C@@H]2CCCN2C(=O)[C@H](CCCNC(=N)N)NC(=O)[C@H](CCCNC(=N)N)NC(=O)[C@H](CCCNC(=N)N)NC(=O)[C@H](CCC(N)=O)NC(=O)[C@H](CCCNC(=N)N)NC(=O)[C@H](CCCNC(=N)N)NC(=O)[C@H](CCCCN)NC(=O)[C@H](CCCCN)NC(=O)[C@H](CCCNC(=N)N)NC(=O)CN)CSSC[C@@H](C(=O)O)NC(=O)[C@H]([C@@H](C)O)NC(=O)CNC(=O)[C@H](CC(C)C)NC(=O)[C@H](Cc2c[nH]cn2)NC(=O)[C@H](CCCNC(=N)N)NC(=O)[C@@H]2CCCN2C(=O)[C@H](CO)NC1=O`: “elimination rate constant” 0.5 ± 0.17 h⁻¹ (competitive EIA; human, plasma; 70 mg, median and quartile range).
The log K(PDMS-water) of `c1cc2ccc3ccc4ccc5cccc6c(c1)c2c3c4c56` is reported as 5.47 ± 0.1 (fresh water; 12 (unit not given), 20 °C, S30-1 sampler, 30 µm).
For `CC[C@H](C)[C@H](NC(=O)CN)C(=O)NCC(=O)N[C@@H](C)C(=O)N[C@H](C(=O)N[C@@H](CC(C)C)C(=O)N[C@@H](CCCCN)C(=O)N[C@H](C(=O)N[C@@H](CC(C)C)C(=O)N[C@H](C(=O)N[C@H](C(=O)NCC(=O)N[C@@H](CC(C)C)C(=O)N1CCC[C@H]1C(=O)N[C@@H](C)C(=O)N[C@@H](CC(C)C)C(=O)N[C@H](C(=O)N[C@@H](CO)C(=O)N[C@@H](Cc1c[nH]c2ccccc12)C(=O)N[C@H](C(=O)N[C@@H](CCCCN)C(=O)N[C@@H](CCCNC(=N)N)C(=O)N[C@@H](CCCCN)C(=O)N[C@@H](CCCNC(=N)N)C(=O)N[C@@H](CCC(N)=O)C(=O)N[C@@H](CCC(N)=O)C(N)=O)[C@@H](C)CC)[C@@H](C)CC)[C@@H](C)O)[C@@H](C)O)C(C)C)C(C)C`, the retention time was 23.2 min (RP-HPLC; AOA-modified analogue).
`Clc1ccc(Cl)c(-c2cc(Cl)ccc2Cl)c1`: “relative organ weight” 0.0026 g/g body weight (Sprague Dawley rat, thymus; intraperitoneal, 100 mg/kg).
`CC[C@H](C)CCCCC(=O)N[C@@H](CCN)C(=O)N[C@H](C(=O)N[C@@H](CCN)C(=O)N[C@H]1CCNC(=O)[C@H]([C@@H](C)O)NC(=O)[C@H](CCN)NC(=O)[C@H](CCN)NC(=O)[C@H](CC(C)C)NC(=O)[C@@H](Cc2ccccc2)NC(=O)[C@H](CCN)NC1=O)[C@@H](C)O` — result for “plasma concentration at 6 h”: 4570 ng/mL (critically ill patients, plasma; intravenous, dose not given, 6 h, steady state, High AUC group, median).
`NCCCC[C@@H]1NC(=O)[C@@H](Cc2c[nH]c3ccccc23)NC(=O)[C@H](c2ccccc2)NC(=O)[C@@H]2C[C@@H](OC(=O)NCCN)CN2C(=O)[C@H](Cc2ccccc2)NC(=O)[C@H](Cc2ccc(OCc3ccccc3)cc2)NC1=O`: “subjects with abdominal discomfort” 14% (healthy human volunteers; 1950 µg twice daily).
With `COc1cccc(Oc2ccccc2NC(=O)CNC(=O)c2cccc3ccccc23)c1` the serum sodium was 156 mmol/L and 160 mmol/L (esterase-deficient SCID mice, male; oral, 15 mg/kg/day, 14 days, toxicity study).
The remaining peptide of `CC(C)C[C@@H]1NC(=O)CNC(=O)[C@H](CC(N)=O)NC(=O)[C@H](CCCCN)NC(=O)[C@H]([C@@H](C)O)NC(=O)[C@@H]2CSSC[C@@H]3NC(=O)[C@H]([C@@H](C)O)NC(=O)CNC(=O)CNC(=O)[C@H](C(C)C)NC(=O)[C@@H]4CSSC[C@H](NC(=O)[C@H]([C@@H](C)O)NC(=O)[C@H](CSSC[C@H](NC(=O)[C@H](C(C)C)NC(=O)[C@@H]5CCCN5C1=O)C(=O)NCC(=O)N[C@@H](CCC(=O)O)C(=O)N[C@@H]([C@@H](C)O)C(=O)N4)NC(=O)CNC(=O)[C@@H]1CCCN1C(=O)[C@H]([C@@H](C)O)NC(=O)[C@H](CC(N)=O)NC3=O)C(=O)N[C@@H](CO)C(=O)N[C@@H](Cc1c[nH]c3ccccc13)C(=O)N1CCC[C@H]1C(=O)N[C@@H](C(C)C)C(=O)N2` is reported as 56.3 ± 6.6% (HPLC; ammonium bicarbonate 0.1 M; 180 µM, 14 days, pH 9.0, 37 °C, deamidation stability).
`CC/C(=C(\c1ccccc1)c1ccc(OCCN(C)C)cc1)c1ccccc1` gave an AUC(0-t) of 67.2 ng·h/mL (CD-1 mouse, male, plasma; intraperitoneal, 1 mg/kg).
The tissue uptake of `[Cl][212Pb][Cl]` is reported as 1.73 ± 0.1 %ID/g (athymic mice, C4-2 xenograft, bladder; intravenous, 2 h, 212Pb-labelled).
Under “grade 3 Rash”, `COc1cc2c(Oc3ccc4[nH]c(C)cc4c3F)ccnc2cc1OCC1(N)CC1` is recorded as 0% (paediatric recurrent refractory sarcoma; concentration not given, whole group).
`N=C(N)NCCC[C@@H](NC(=O)[C@@H](N)Cc1ccccc1)C(=O)N[C@@H](Cc1ccccc1)C(=O)N[C@@H](CCCCN)C(N)=O`: “mean amount excreted in urine” 7.75e+06 ng (LC-MS; human; 25 mg, 5.833 h).
`Nc1ncc(-c2nc(N3CCOCC3)nc(N3CCOCC3)n2)c(C(F)F)n1` has an apparent half-life of 2.3 to 5.7 h (Wistar rat, both sexes, blood; oral gavage, 14-day pilot toxicity study).
`Clc1cc(Cl)cc(-c2cc(Cl)ccc2Cl)c1` — result for “literature range factor”: 1.2 (PDMS-water partitioning; PCB compilation; reference: maximum over minimum K).
For `CCOc1cc(Oc2ccc(C(F)(F)F)cc2Cl)ccc1[N+](=O)[O-]`, “final body weight” read 146 ± 6.93 g (rat male; 31.25 mg/kg, 8 days).
Under “subjects with AEs leading to discontinuation”, `CC(=O)N(C)[C@H]1CCN(C(=O)c2cnc3c(c2)C[C@](C)(c2ccc(F)cc2)N3)C1` is recorded as 12.5% (healthy male humans; oral, dose not given, multiple rising dose, with: 60 mg midazolam once daily).
`CN1CCN(c2ccc(Nc3nccc(-c4ccc([N+](=O)[O-])cc4)n3)cc2C(F)(F)F)CC1` has a toxicity of 67% (Danio rerio embryos; 5 µM, 5 d).
Under “serum protein fraction”, `O=C(O)CCCOc1ccc(F)cc1-c1cc(-c2ccccc2C(F)(F)F)n(-c2ccccc2)n1` is recorded as 19 ± 1.8% (measured: α1-glb; Crl:CD(SD) rats, female, serum; iv, 25 µg/kg, 1 day).
`CO[C@H]1C[C@@H]2CC[C@@H](C)[C@@](O)(O2)C(=O)C(=O)N2CCCC[C@H]2C(=O)O[C@H]([C@H](C)C[C@@H]2CC[C@@H](OC(=O)NCCOCCOCCOCCOCCOCCOCCOCCOCCC(=O)N3CCc4cc(Cn5nc(-c6ccc7oc(N)nc7c6)c6c(N)ncnc65)ccc4C3)[C@H](OC)C2)C[C@@H](O)[C@H](C)/C=C(\C)[C@@H](O)[C@@H](OC)C(=O)[C@H](C)C[C@H](C)/C=C/C=C/C=C/1C` — result for “incidence of Mucositis TRAE”: 10.5% (patients with advanced solid tumours; intravenous, dose not given, grade ≥3).
For `CC(=O)c1c(C)c2cnc(Nc3ccc(C4CCN(CCS(C)(=O)=O)CC4)cn3)nc2n(C2CCCC2)c1=O`, “elimination rate constant” read 0.08 h⁻¹ (human, plasma; oral, 150 mg, day 1 single dose).

Excerpt of the above:
`NCCCC[C@@H]1NC(=O)[C@@H](Cc2c[nH]c3ccccc23)NC(=O)[C@H](c2ccccc2)NC(=O)[C@@H]2C[C@@H](OC(=O)NCCN)CN2C(=O)[C@H](Cc2ccccc2)NC(=O)[C@H](Cc2ccc(OCc3ccccc3)cc2)NC1=O`: “subjects with abdominal discomfort” 14% (healthy human volunteers; 1950 µg twice daily).
With `COc1cccc(Oc2ccccc2NC(=O)CNC(=O)c2cccc3ccccc23)c1` the serum sodium was 156 mmol/L and 160 mmol/L (esterase-deficient SCID mice, male; oral, 15 mg/kg/day, 14 days, toxicity study).
The remaining peptide of `CC(C)C[C@@H]1NC(=O)CNC(=O)[C@H](CC(N)=O)NC(=O)[C@H](CCCCN)NC(=O)[C@H]([C@@H](C)O)NC(=O)[C@@H]2CSSC[C@@H]3NC(=O)[C@H]([C@@H](C)O)NC(=O)CNC(=O)CNC(=O)[C@H](C(C)C)NC(=O)[C@@H]4CSSC[C@H](NC(=O)[C@H]([C@@H](C)O)NC(=O)[C@H](CSSC[C@H](NC(=O)[C@H](C(C)C)NC(=O)[C@@H]5CCCN5C1=O)C(=O)NCC(=O)N[C@@H](CCC(=O)O)C(=O)N[C@@H]([C@@H](C)O)C(=O)N4)NC(=O)CNC(=O)[C@@H]1CCCN1C(=O)[C@H]([C@@H](C)O)NC(=O)[C@H](CC(N)=O)NC3=O)C(=O)N[C@@H](CO)C(=O)N[C@@H](Cc1c[nH]c3ccccc13)C(=O)N1CCC[C@H]1C(=O)N[C@@H](C(C)C)C(=O)N2` is reported as 56.3 ± 6.6% (HPLC; ammonium bicarbonate 0.1 M; 180 µM, 14 days, pH 9.0, 37 °C, deamidation stability).
`CC/C(=C(\c1ccccc1)c1ccc(OCCN(C)C)cc1)c1ccccc1` gave an AUC(0-t) of 67.2 ng·h/mL (CD-1 mouse, male, plasma; intraperitoneal, 1 mg/kg).
The tissue uptake of `[Cl][212Pb][Cl]` is reported as 1.73 ± 0.1 %ID/g (athymic mice, C4-2 xenograft, bladder; intravenous, 2 h, 212Pb-labelled).
